Measured values of several laboratories.
Every numbered part comes from another study and shows a few of its results, in no order. Several values in a cell are separate wells, animals, samples, runs or records.

Sample 1 — technique: Incucyte 3D growth; tested at: 30 µM; direction: higher = more growth
Compound: CC(C)(C(=O)O)[C@H](NC(=O)Cc1cccc(I)c1)c1ccc2oc(=O)[nH]c2c1
IPC-298; 222 h — spheroid area: 3.14e+07 a.u. and 2.93e+07 a.u. and 2.72e+07 a.u. and 4.16e+07 a.u. and 2.45e+07 a.u. and 2.48e+07 a.u.
The spheroid area was 1.98e+08 a.u. and 1.67e+08 a.u. and 1.93e+08 a.u. and 1.74e+08 a.u. and 1.84e+08 a.u. and 1.73e+08 a.u. (A375; 258.52 h).
The spheroid area was 1.69e+07 a.u. and 1.93e+07 a.u. and 1.7e+07 a.u. and 1.71e+07 a.u. and 1.95e+07 a.u. and 1.54e+07 a.u. (MEL-JUSO; 174.52 h).
For A375; 510.52 h: spheroid area read 1.52e+08 a.u. and 1.38e+08 a.u. and 1.75e+08 a.u. and 1.45e+08 a.u. and 1.44e+08 a.u.
For NCI-H358; 246 h: spheroid area read 9.35e+06 a.u. and 8.98e+06 a.u. and 7.12e+06 a.u. and 9.99e+06 a.u. and 1.1e+07 a.u. and 9.83e+06 a.u.

Sample 2 — cell line: normal organoid sample F; technique: CellTiter-Glo; host: human; sample: normal-adjacent epithelium; tested at: 0.1 µM; relative to: DMSO
For COc1ccc2cc(OCC3(C(=O)O)CN(C(=O)c4ccc(F)cc4)C3)ccc2c1, the viability was 160% and 111%.
For CC(C)CC(=O)N1CCc2nc(-c3ccc(Br)cc3)nc(N(C)Cc3ccccc3)c2C1, the viability was 108% and 124%.
With O=C(Nc1ccc(Oc2ccc(F)cc2)cc1)N1CCc2ncccc2[C@H]1c1ccc(F)cc1 the viability was 126% and 71.9%.
The viability of COCCOc1nc(-c2ccc(Cl)nc2)nc2c1CN(C(=O)c1ncn3ccccc13)CC2 is reported as 81.2% and 93.5%.
Cc1c[nH]c2nccc(Oc3c(F)cc(Nc4cc(Cl)nc(N)n4)cc3F)c12 has a viability of 137% and 89.8%.
With O=C(c1ccc(F)cc1)N1CC(COc2ccc(Br)cc2)(C(=O)O)C1 the viability was 81.5% and 127%.
CS(=O)(=O)NCC[C@H](NC(=O)c1cncc2c1cnn2-c1ccc(F)cc1)c1ccnc(S(C)(=O)=O)c1 gave a viability of 146% and 152%.

Sample 3 — technique: PI flow cytometry; time: 24 h
Compound: CC(C)C[C@@H]1NC(=O)[C@@H](N(C)C(=O)[C@H](CC2CCC2)NC(=O)[C@@H]2C[C@@H](F)CN2C(=O)C2(C(F)(F)F)CC(F)(F)C2)CCCCNC(=O)C2(CC2)NC(=O)[C@H](Cc2cc(Cl)ccc2Cl)N(C)C1=O
HCC4006; 20 nM — “G1 phase cells”: 53.1% and 55.2% and 51.9%.
NCI-H446; 200 nM — “G1 phase cells”: 22.7% and 23.2% and 22.6%.
It gave 56.7% and 49.5% and 44.8% for “G1 phase cells” (HCC4006; 200 nM).
For NCI-H1299; 2000 nM: “G1 phase cells” read 50.4% and 61.2%.
The “G1 phase cells” was 9.37% and 11.1% and 8.26% (NCI-H446; 2000 nM).
A549; 2000 nM — “G1 phase cells”: 56.3% and 41.1% and 45.8%.
The “G1 phase cells” was 46.6% and 42.2% and 40.5% (NCI-H82; 200 nM).
It gave 38.5% and 41.3% and 46.4% for “G1 phase cells” (NCI-H446; 20 nM).

Sample 4 — cell line: HaCaT; tested at: 100 µM; time: 60 h
The viability of CCC(=O)NCC[C@@H]1CCc2ccc3c(c21)CCO3 is reported as 131%.
CCC[C@H](NC(=O)[C@@H]1[C@H]2CCC[C@H]2CN1C(=O)[C@@H](NC(=O)[C@@H](NC(=O)c1cnccn1)C1CCCCC1)C(C)(C)C)C(=O)C(=O)NC1CC1 gave a viability of 18.4%.
The viability of CC(=O)OCC(=O)[C@@]1(O)CC[C@H]2[C@@H]3CCC4=CC(=O)C=C[C@]4(C)[C@H]3[C@@H](O)C[C@@]21C is reported as 165%.
O=C(O)c1cccnc1Nc1cccc(C(F)(F)F)c1 gave a viability of 120%.
Nc1ccc(S(=O)(=O)Nc2nccs2)cc1 has a viability of 88.4%.
Cc1ncc([N+](=O)[O-])n1CCO gave a viability of 131%.

Repeated from above (sample 1):
The spheroid area was 1.98e+08 a.u. and 1.67e+08 a.u. and 1.93e+08 a.u. and 1.74e+08 a.u. and 1.84e+08 a.u. and 1.73e+08 a.u. (A375; 258.52 h).
The spheroid area was 1.69e+07 a.u. and 1.93e+07 a.u. and 1.7e+07 a.u. and 1.71e+07 a.u. and 1.95e+07 a.u. and 1.54e+07 a.u. (MEL-JUSO; 174.52 h).
For A375; 510.52 h: spheroid area read 1.52e+08 a.u. and 1.38e+08 a.u. and 1.75e+08 a.u. and 1.45e+08 a.u. and 1.44e+08 a.u.
For NCI-H358; 246 h: spheroid area read 9.35e+06 a.u. and 8.98e+06 a.u. and 7.12e+06 a.u. and 9.99e+06 a.u. and 1.1e+07 a.u. and 9.83e+06 a.u.
